# Results gathered from unrelated publications.
# Each numbered part is a random draw from the data of one study; scales do not carry over between parts. Substitutions count along the parent as printed.

# Series 1 — method: protein binding microarray; form: double-stranded DNA, one strand shown; medium: in vitro; concentration: not given; reference: not given; reading: higher = stronger binding
# Target: Histone acetyltransferase KAT6A, winged helix 2, GST fusion (KAT6A, Homo sapiens, UniProt Q92794, residues 85-181)
# Notes: 8-mer, flanks averaged, mean of 2 arrays, mostly near background
# Target sequence (chain): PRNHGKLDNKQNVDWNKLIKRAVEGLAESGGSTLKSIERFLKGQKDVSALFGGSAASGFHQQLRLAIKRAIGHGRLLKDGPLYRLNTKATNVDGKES
Strand,E-score
GTAATACA,0.0183
CCGGCCAG,0.139
GATAGCCA,-0.0944
ACATAGCA,-0.0322
CGTACATC,-0.298
GAGTGACC,-0.14
CGGTTTCC,0.0838
GGCCGACA,-0.0356
CGGCGCGA,0.344
AACGTCTA,-0.198
ATTACAGA,0.182
AGACAGCA,0.00455
GACGCCCC,-0.103
AGAGCAGC,0.0431
AGTTTCTG,-0.013
TCTAATCA,0.104
AACCTTAG,-0.104
GACGAGAA,0.142
GGCCTGAC,0.0195
CCTGGAAC,-0.056
TGTGCGAA,0.0658
CAATAGTG,-0.0948
TCCGAAGA,0.245
CAAAACAC,0.0523
CGCCTGTC,0.055

# Series 2 — method: RNA Bind-n-Seq; form: RNA; medium: in vitro; concentration: 200 nM; notes: whole 134-nt RNA, ends assumed; added: 150 mM KCl; reference: input library; reading: higher = stronger binding
# Target: Fragile X messenger ribonucleoprotein 1, C-terminal low-complexity region (Fmr1, Mus musculus, UniProt P35922)
# All sequences stand within: GGGAGUUCUACAGUCCGACGAUC … UGGAAUUCUCGGGUGUCAAGG
Strand,log2 enrichment
AAGUCCUGUGCUACACAUCGUAUGUACCGAAUCGGGAAAAAAAGGGUUUGGGUGGGAAAGUAUUAUGUUACGCCGUUCGGAUCUGCACUU,0.888
UCCUGUGCUACACAUCGUAUGUACCGAAUCGGGGUUUUUGGGGUUUUUGGGGAAAGGGGAAAGUAUUAUGUUACGCCGUUCGGAUCUGCA,0.888
UGAUGGGACAACACCCGAAAGGAUAGCACAAAUAACAGGACCUCCAGACCGAUGUCAACAUGCUGCAGAAAUUAUUACAGACCUUCUUCG,0.312
AGUCCUGUGCUACACAUCGUAUGUACCGAAUCGGGUUUUUGGGAAAAAAAGGGAGGGAAAGUAUUAUGUUACGCCGUUCGGAUCUGCACU,0.576
UGGGAGGUGGAUUUUGUUUAUUUUUCUAGCUCAUUUCCAGGGGUGGGAAUUUUUUUUUAAUAUGUGUCAUGAAUAAAGUUGUUUUUGAAA,0.277
CAAGUCCUGUGCUACACAUCGUAUGUACCGAAUCGGUUUUUGGUUUUUUUGGUGGAAAGUAUUAUGUUACGCCGUUCGGAUCUGCACUUC,-0.594
AGUCCUGUGCUACACAUCGUAUGUACCGAAUCGGGGAGGGGAAAAAGGGGUUUGGGGAAAGUAUUAUGUUACGCCGUUCGGAUCUGCACU,0.657
UUAUCUGUGGACUUCACCCAAAAGGAGUGGCAGCUACUGGAUCCCUCUCAGAAGAAUUUAUACAAGGAUGUGAUGUUGGAGAACUAUAGC,-0.599
GCAGGAAGUAAAAACAAAUGGAAAUGCUUCGGAUAGUGGCAGGGGUGGGGGUUGCUAAGGAAAGGGUGGGAGGGGAGUGGGUAAAGAGUU,0.3
UUUGCUUGCAGUAUCUGUUUCUCUUCCUAGGCUCAAGUUGGUGACCCAAGCCUAUUGUAAACAAGUGAUUAUCUCAAAGGGAGAUGCCAA,-0.398
GCAGGAAGUAAAAACAAAUGGAAAUGCUCCGGAUAGUGGCAGGGGUGGGGGUUGCUAAGGAAAGGGUGGGAUGGGAGUGGGUAAAGAGUU,0.308
AGUCCUGUGCUACACAUCGUAUGUACCGAAUCGGGUUUUUGGGUUUGGGUUUUUGGGAAAGUAUUAUGUUACGCCGUUCGGAUCUGCACU,0.322
CCUGUGCUACACAUCGUAUGUACCGAAUCGGGGUUUUUUUGGUUUUUUUGGUUUUUUUGGGAAAGUAUUAUGUUACGCCGUUCGGAUCUG,-0.864
UCCUGUGCUACACAUCGUAUGUACCGAAUCGGGUUUUUUUGGGAAAAAGGGUUUUUGGGAAAGUAUUAUGUUACGCCGUUCGGAUCUGCA,-0.183

# Series 3 — method: universal PBM; form: double-stranded DNA, one strand shown; medium: in vitro; concentration: 600 nM; reading: higher = stronger binding
# Target: Sal-like protein 4, full length isoform A (SALL4, Homo sapiens, UniProt Q9UJQ4, residues 1-1053)
# UniProt Q9UJQ4, sequence (whole entry, looked up): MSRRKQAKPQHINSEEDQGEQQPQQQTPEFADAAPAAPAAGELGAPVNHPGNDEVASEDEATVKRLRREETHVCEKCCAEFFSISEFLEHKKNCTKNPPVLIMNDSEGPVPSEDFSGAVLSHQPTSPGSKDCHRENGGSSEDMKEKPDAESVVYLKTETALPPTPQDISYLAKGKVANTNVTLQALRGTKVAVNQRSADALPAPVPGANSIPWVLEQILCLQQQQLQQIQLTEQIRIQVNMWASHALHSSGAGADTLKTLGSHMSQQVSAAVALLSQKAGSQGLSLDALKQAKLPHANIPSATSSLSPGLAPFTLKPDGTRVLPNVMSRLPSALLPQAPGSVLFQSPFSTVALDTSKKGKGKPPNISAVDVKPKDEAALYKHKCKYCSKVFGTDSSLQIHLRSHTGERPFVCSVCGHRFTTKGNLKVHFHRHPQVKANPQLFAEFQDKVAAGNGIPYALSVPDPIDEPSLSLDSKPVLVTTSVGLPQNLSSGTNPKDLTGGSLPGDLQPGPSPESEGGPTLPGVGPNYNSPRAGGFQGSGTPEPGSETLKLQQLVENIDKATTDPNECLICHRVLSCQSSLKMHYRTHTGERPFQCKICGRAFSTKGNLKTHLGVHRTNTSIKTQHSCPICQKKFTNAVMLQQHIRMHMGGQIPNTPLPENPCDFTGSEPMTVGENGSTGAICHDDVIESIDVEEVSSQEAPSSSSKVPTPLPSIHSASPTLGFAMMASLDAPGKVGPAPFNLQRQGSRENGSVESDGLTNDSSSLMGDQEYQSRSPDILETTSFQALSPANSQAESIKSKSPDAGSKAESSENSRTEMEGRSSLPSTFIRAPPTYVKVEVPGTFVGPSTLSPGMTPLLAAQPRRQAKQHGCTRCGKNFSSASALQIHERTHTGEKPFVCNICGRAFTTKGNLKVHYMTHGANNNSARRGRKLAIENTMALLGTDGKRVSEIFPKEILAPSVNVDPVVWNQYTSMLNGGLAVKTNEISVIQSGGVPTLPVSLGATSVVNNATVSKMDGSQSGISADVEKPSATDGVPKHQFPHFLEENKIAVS
# Notes: 8-mer, flanks averaged, mean of replicates
Strand,E-score
CCATCGAC,-0.0806
AATACTAC,0.247
AAACCCTT,0.068
TAAGCGGA,-0.0618
CAAGTGTC,-0.0145
CGGGTTAG,-0.352
ACCCCACC,-0.0704
GTTTAAGA,-0.0718
GCAATAGA,0.109
CAATCTGG,-0.0263
CCTATTCC,-0.00102
ATTCCTAA,0.158
ACGGGCGG,-0.343
CTAAACCC,-0.0258
CCGTTGGA,-0.278
CAGCCCTA,-0.205

# Series 4 — target: CCNB2, cyclin fold, Cln2 fusion (human); method: yeast growth competition, sequencing; medium: yeast; notes: weak parent motif; reference: not given; reading: higher = stronger binding
# Parent: PKN2 docking peptide (human); VSAVQKLDFSDTM
Change,normalised enrichment score
VSAWQKLDFSDTM [V4W],-0.312
VSAVQKLMFSDTM [D8M],0.0665
VSAVQKLDFIDTM [S10I],0.0998
SSAVQKLDFSDTM [V1S],0.36
WSAVQKLDFSDTM [V1W],-0.105
VSAVQKLDISDTM [F9I],-0.127
VSAVQKLDFSDNM [T12N],-0.0459
VSLVQKLDFSDTM [A3L],1.08
VSAVQCLDFSDTM [K6C],-0.00901
VPAVQKLDFSDTM [S2P],-0.125
VSAVQKLDFSDHM [T12H],-0.14
VSRVQKLDFSDTM [A3R],-0.253
VSQVQKLDFSDTM [A3Q],-0.341
VSAVQKLDFSDMM [T12M],-0.305
VSAVQKLDFSTTM [D11T],-0.309
VSAVQKLDFSDRM [T12R],-0.283
VSAVQKLDFSDTG [M13G],0.00619
LSAVQKLDFSDTM [V1L],0.142
VSAVQNLDFSDTM [K6N],0.0254
VSAVQKLDFSDTV [M13V],0.196
VSAVQKLVFSDTM [D8V],0.00781
VSATQKLDFSDTM [V4T],-0.299
HSAVQKLDFSDTM [V1H],0.0552
VSAVQKLDFCDTM [S10C],-0.103
VSAVQKDDFSDTM [L7D],-0.305

# Series 5 — method: RNA Bind-n-Seq; form: RNA; medium: in vitro; concentration: 365 nM; reference: no-protein control; reading: higher = stronger binding
# Target: RNA binding protein fox-1 homolog 2, RRM domain, GST-SBP tag (RBFOX2, Homo sapiens, UniProt O43251-10, residues 100-194)
# Notes: natural RNA segment, single round, ends assumed
# All sequences stand within: GGGAGUUCUACAGUCCGACGAUC … UGGAAUUCUCGGGUGCCAA
# Target sequence (chain): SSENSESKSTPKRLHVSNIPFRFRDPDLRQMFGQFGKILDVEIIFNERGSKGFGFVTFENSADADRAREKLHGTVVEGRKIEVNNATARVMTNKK
Strand,RBNS enrichment (R)
ACACUAUCUUGACACUUGAUAGAAGAGCCUAUUAGGAGUCACAGUGGUUUCGUAGAGUAAAACCCAAGUGAGGAGGGAUGUGUGGGGUUUCCAUUAGGAAAUAAUUUCGU,0.631
UCUUGGCAGAACUUUCUAAAGCUACUGCUUUCAAUAGAUUCCAGCCGCAUAUUCCCAUGGGCAUAUUCCCAUGCUUUCUCAAAUAGACUACUGUGAUAAAAAUGAACUCA,0.314
AAGACCUAUUUAAUAAUUGGUGCAUAAAUGAAAGUAGUACUGUAUACUUGAAACUGUUUAAGUACAAGUUGAACAAAAAUUAUGAAAAGGUAUAUUUGCUUCUCGGGAAA,0.586
UGCCCCAAAUGCAGCUUCAUUUUCCAGAUACCUUGACGCAGAAUAAAUUUUUUCAUCAUUUAGGUGCGCUUGUUGUGUAGUAUGUUUUAUUUUUGGUUUUCAAUUGAAUG,0.362
UUGUUGCUUUACCCAAGACAAAUGUAAUUUUAUCAUUGCUUAUGUAGUAUUUUUCUUUUGGAAAUGUGCCUUAUGUUAAACACUAUGUACUUUUACUUUUUGCAUUGUCC,0.401
CCAUUUAGGCCUGACUGGGGUAAGAAAUGUCGCUCCACUUUACAGAGGUAGCUGUGGUGUUGAAACACUGGACUUGGAUAUGGGGUGCUGGGAUCGAUUCCUAGCUUUAC,0.568
UAGCAGAAUAUAGUUUGGAGUUUGGCUUCAUCUUCCUGGGGUUCCCCUCACUCCCUUUUUUGUCAACCCCAUCUGUAGCCUCUUCCUCUACUCAGGCAGUCGACCCGCCA,0.881
GAUUCUCUAAAGGAAUUUGGAGAUAUGACAUCACUCCUGAGCAGAGCAUAUUAGAAGAAAGCAAACUGCCAUACAAUAAUUUUCAGUUUCCAAGGCAACCAAGUGGAGAA,1.27
AUUCCCAAGGUACAUACUUUGACUUAAAUGUGGGAUAACUCAGCACUAAUGGGCAGGUAAAGUCACAACUGUGGUUAUUUUGGUUUUGUUUUGGUUUUUGGUUUUUUUAU,0.935
GUUGCAUCUGGAAGUUCGAAGAAAUUACUUGAAAUAAAAAUAAAGAUUUCUAUAUAGAUAAAACCUAUAUGUAGAGAAAAAGCAAUUGUCUAGAAAACACAAAACUUCUG,0.537
CCUUGAAUAGCUCUGCUUGGACAAUGGGGUUGGGGAAUAGGGUUGUCUUUCCUAUGAAAAUGCCAUCUGUAGACCUUGUGAGUCAGCCGUCCAGAUGUUUGCAGGUGAAU,0.441
AUGACCCCUUUGGGGAUCAAACUACGCUUUCACAGGGGUCACCAAGGACCAUUGGAAAACACAGAUUAUUUUAACGUUAUAAAAUUCACAUCAGGAGCAAAAUCACAGAU,0.421

# For quick reference, copied from above (series 5):
Strand,RBNS enrichment (R)
UCUUGGCAGAACUUUCUAAAGCUACUGCUUUCAAUAGAUUCCAGCCGCAUAUUCCCAUGGGCAUAUUCCCAUGCUUUCUCAAAUAGACUACUGUGAUAAAAAUGAACUCA,0.314
AAGACCUAUUUAAUAAUUGGUGCAUAAAUGAAAGUAGUACUGUAUACUUGAAACUGUUUAAGUACAAGUUGAACAAAAAUUAUGAAAAGGUAUAUUUGCUUCUCGGGAAA,0.586
UGCCCCAAAUGCAGCUUCAUUUUCCAGAUACCUUGACGCAGAAUAAAUUUUUUCAUCAUUUAGGUGCGCUUGUUGUGUAGUAUGUUUUAUUUUUGGUUUUCAAUUGAAUG,0.362
UUGUUGCUUUACCCAAGACAAAUGUAAUUUUAUCAUUGCUUAUGUAGUAUUUUUCUUUUGGAAAUGUGCCUUAUGUUAAACACUAUGUACUUUUACUUUUUGCAUUGUCC,0.401
CCAUUUAGGCCUGACUGGGGUAAGAAAUGUCGCUCCACUUUACAGAGGUAGCUGUGGUGUUGAAACACUGGACUUGGAUAUGGGGUGCUGGGAUCGAUUCCUAGCUUUAC,0.568
UAGCAGAAUAUAGUUUGGAGUUUGGCUUCAUCUUCCUGGGGUUCCCCUCACUCCCUUUUUUGUCAACCCCAUCUGUAGCCUCUUCCUCUACUCAGGCAGUCGACCCGCCA,0.881
GAUUCUCUAAAGGAAUUUGGAGAUAUGACAUCACUCCUGAGCAGAGCAUAUUAGAAGAAAGCAAACUGCCAUACAAUAAUUUUCAGUUUCCAAGGCAACCAAGUGGAGAA,1.27
AUUCCCAAGGUACAUACUUUGACUUAAAUGUGGGAUAACUCAGCACUAAUGGGCAGGUAAAGUCACAACUGUGGUUAUUUUGGUUUUGUUUUGGUUUUUGGUUUUUUUAU,0.935
GUUGCAUCUGGAAGUUCGAAGAAAUUACUUGAAAUAAAAAUAAAGAUUUCUAUAUAGAUAAAACCUAUAUGUAGAGAAAAAGCAAUUGUCUAGAAAACACAAAACUUCUG,0.537
CCUUGAAUAGCUCUGCUUGGACAAUGGGGUUGGGGAAUAGGGUUGUCUUUCCUAUGAAAAUGCCAUCUGUAGACCUUGUGAGUCAGCCGUCCAGAUGUUUGCAGGUGAAU,0.441
AUGACCCCUUUGGGGAUCAAACUACGCUUUCACAGGGGUCACCAAGGACCAUUGGAAAACACAGAUUAUUUUAACGUUAUAAAAUUCACAUCAGGAGCAAAAUCACAGAU,0.421
